Measured values of several laboratories.
Protocols differ between the studies behind these lines. Values joined by “and” are separate records of one study, mostly repeats; a detail may differ. Numbers after ± are the reported error.
PSMB5: Proteasome Macropain subunit MB1 (PSMB5, Homo sapiens, UniProt P28074)
Genome polyprotein NS2B-NS3 protease: Genome polyprotein, NS2B-NS3 protease (ZIKV, UniProt A0A024B7W1)
ALPL: Alkaline phosphatase, tissue-nonspecific isozyme (ALPL, Homo sapiens, UniProt P05186)
Proteasome component C5/PSMB5 chymotrypsin-like site: Proteasome component C5/PSMB5, chymotrypsin-like site (Homo sapiens, UniProt P20618+P28074)

| Compound | target | test | system | conditions | IC50 |
| --- | --- | --- | --- | --- | --- |
| O=C(OC(C(F)(F)F)C(F)(F)F)N1CCC(CCn2ccc3ccc(F)cc32)CC1 | Monoglyceride lipase (MGLL, Homo sapiens, UniProt Q99685) | enzyme activity, inhibitor | – | – | 0.51 µM |
| COc1ccc(CC2NCCc3c2[nH]c2ccc(C)cc32)c(Cl)c1OC (stereo not drawn) | 5-hydroxytryptamine receptor 2B (HTR2B, Homo sapiens, UniProt P41595) | – | – | – | 0.078 µM |
| CN[C@@H]1C[C@H]2O[C@@](C)([C@@H]1OC)n1c3ccccc3c3c4c(c5c6ccccc6n2c5c31)C(=O)NC4 | PSMB5 | enzyme activity | – | added: Suc-LLVY-AMC substrate, ATP | 8 ± 1.5 µM |
| CC(O)C(C)OC(=O)[C@@H]1C[C@@H]2c3cccc4c3c(cn4C(C)C)C[C@H]2N(C)C1 (stereo partly drawn) | human MBNL1 | CUG repeat RNA binding, inhibitor, HTRF | – | added: biotin-(CUG)12 RNA | 25.1 µM |
| CC(C)=CCC/C(C)=C/CC/C(C)=C/CSCCS(=O)(=O)F | Liver carboxylesterase 1 (CES1, Homo sapiens, UniProt P23141) | PMPMEase activity, inhibitor | SH-SY5Y | 24 h, treated cells, lysate assayed, added: RD-PNB substrate | 15 µM |
| CN1C(=O)[C@]23SS[C@@]1(C)C(=O)N2[C@H]1Nc2ccccc2[C@@]1([C@@]12c4ccccc4N[C@@H]1N1C(=O)[C@@]4(C)SS[C@]1(C(=O)N4C)[C@H]2O)[C@@H]3O | Histone-lysine N-methyltransferase 2B (KMT2B, Homo sapiens, UniProt Q9UMN6) | methyltransferase activity, inhibitor | – | added: 1 µM [3H]SAM | > 10 µM |
| Nc1ncnc2c1c(-c1cnc3[nH]ccc3c1)nn2C1CCCC1 | Mitogen-activated protein kinase kinase kinase 2 (MAP3K2, Homo sapiens, UniProt Q9Y2U5) | enzyme activity, inhibitor | – | – | 0.007 µM |
| Oc1ccc(-c2ccc(Cl)cc2Cl)cc1Cl | Sulfotransferase 1A1 (Sult1a1, Rattus norvegicus, UniProt P17988) | enzyme activity, inhibitor | – | – | 57.7 µM |
| NCc1ccc(-c2ncc(OCC3CCNCC3)nc2-c2ccc3nc[nH]c3c2)cc1 | Genome polyprotein NS2B-NS3 protease | inhibitor | Zika virus | – | 2.22 µM |
| CC(C)[C@H](NC(=O)N[C@H](C(=O)N[C@H]1/C=C/CCNC(=O)/C=C/[C@H](C(C)C)NC1=O)C(C)C)C(=O)O | PSMB5 | active site labelling, inhibitor, probe competition gel | HEK-293T cell lysate | 1 h, 37 °C, added: activity-based probe 0.5 µM | 1.3 µM |
| Cn1ncnc2c(=O)n(C)c(=O)nc1-2 | Cathepsin B (CTSB, Homo sapiens, UniProt P07858) | enzyme activity, inhibitor, fluorescence | – | – | 0.046 µM |
| CCN(CC)C(C)CN1c2ccccc2Sc2ccccc21 (stereo not drawn) | Dugesia japonica cholinesterase | enzyme activity | planarian homogenate | 5 min, added: butyrylthiocholine 1 mM | 220 ± 0.007 µM |
| COc1ccc(C)cc1S(=O)(=O)Nc1cccnc1 | ALPL | enzyme activity, inhibitor, colorimetric OD405 | – | resynthesised dry powder, added: 0.5 mM pNPP | 0.825 µM |
| CC(C)C[C@H](NC(=O)[C@H](Cc1ccccc1)NC(=O)[C@H](CC1CCCCC1)NC(=O)OCc1ccccc1)C(=O)C(=O)Nc1ccccc1 | Proteasome component C5/PSMB5 chymotrypsin-like site | enzyme activity in cells, inhibitor | – | – | 0.603 µM |
| CC1(C)N=C(N)N=C(N)N1OCCCOc1cc(Cl)c(Cl)cc1Cl | SHMT (Plasmodium falciparum, UniProt Q8I566) | enzyme activity, radiometric | – | 20 min, 37 °C, added: serine 0.2 mM, THF 1 mM | 125 µM |
| Fc1ccc(C(OCCN2CCN(CCCc3ccccc3)CC2)c2ccc(F)cc2)cc1 | Potassium channel subfamily K member 18 (KCNK18, Homo sapiens, UniProt Q7Z418) | ion flux, inhibitor | – | – | 15.1 µM |
| Oc1ccc(-c2ccc(Cl)cc2)cc1 | Sulfotransferase 2A1 (SULT2A1, Homo sapiens, UniProt Q06520) | enzyme activity, inhibitor, radiometric | – | pH 7.4 | 12 µM |
| CC[C@H](C)[C@H](NC(=O)[C@H](CO)NC(=O)[C@H](Cc1ccc(O)cc1)NC(=O)[C@H](CC(=O)O)NC(=O)[C@H](CO)NC(=O)[C@@H](NC(=O)[C@@H](O)Cc1ccccc1)[C@@H](C)CC)C(=O)N[C@@H](C)C(=O)N[C@@H](CC(C)C)C(=O)N[C@@H](CC(=O)O)C(=O)N[C@@H](CCCCN)C(=O)N[C@H](C(=O)N[C@@H](CCCNC(=N)N)C(=O)N[C@@H](CCC(N)=O)C(=O)N[C@@H](CCC(N)=O)C(=O)N[C@@H](CCC(=O)O)C(=O)N[C@@H](Cc1ccccc1)C(=O)N[C@H](C(=O)N[C@@H](CC(N)=O)C(=O)N[C@@H](Cc1c[nH]c2ccccc12)C(=O)N[C@@H](CC(C)C)C(=O)N[C@@H](CC(C)C)C(=O)N[C@@H](C)C(=O)N[C@@H](CCC(N)=O)C(=O)N[C@@H](CCCCN)C(=O)NCC(=O)O)C(C)C)[C@@H](C)CC | Gastric inhibitory polypeptide receptor (Mus musculus, UniProt Q0P543) | cAMP response, antagonist, CRE-luciferase reporter | BHK | 3 h, 37 °C, added: 50 pM GIP | 0.334 µM |

| Compound | target | test | system | conditions | IC50 |
| --- | --- | --- | --- | --- | --- |
| CC(=O)Nc1ccc(O)cn1 | Seed linoleate 13S-lipoxygenase-1 (Glycine max, UniProt P08170) | enzyme activity, inhibitor | – | pH 9.2 | 1620 µM |
| O=C(O)c1cc(-c2ccccc2Cl)n[nH]1 | ALPL | enzyme activity, inhibitor, luminescence | – | added: 0 M DEA, 50 µM CDP-star | 0.178 ± 0.007 µM |
| c1nc2c(NCc3ccc(CCNCCCNC4CCCCC4)cc3)nc(N3CCNCC3)nc2[nH]1 | C-X-C chemokine receptor type 4 (CXCR4, Homo sapiens, UniProt P61073) | ligand displacement, radioligand | – | cell membranes | 0.0164 µM |
| NC(=O)CC[C@@H]1NC(=O)[C@H](Cc2ccccc2)NC(=O)[C@H](Cc2ccc(O)cc2)NC(=O)[C@@H](N)CSSC[C@@H](C(=O)N2CCC[C@H]2C(=O)N[C@@H](CCCN=C(N)N)C(=O)NCC(N)=O)NC(=O)[C@H](CC(N)=O)NC1=O | Oxytocin receptor (Macaca mulatta, UniProt P56494) | membrane hyperpolarization, membrane potential dye | CHO expressing macaque oxytocin receptor | – | 0.0595 µM |
| NCCc1ccc(O)c(O)c1 | Sodium-dependent noradrenaline transporter (Mus musculus, UniProt O55192) | – | – | – | ~13 µM and 12.7 µM |
| CC[C@H]1C[C@@H]2C[C@H]3c4[nH]c5ccccc5c4CCN(C2)[C@@H]13 | Synaptic vesicular amine transporter (Slc18a2, Rattus norvegicus, UniProt Q01827) | [3H]5-HT uptake, inhibitor | rat brain synaptic vesicles | added: [3H]5-HT | > 10 µM |
| O=C1c2ccccc2SC(c2ccc(F)cc2)N1CCCN1CCCCC1 (stereo not drawn) | Acetylcholinesterase (Ache, Rattus norvegicus, UniProt P37136) | inhibitor, Ellman method | rat cerebral cortex homogenate | added: acetylthiocholine | > 250 µM |
| CC(=O)c1cccc(NC(=O)C(=O)[C@H](CC(C)C)NC(=O)[C@H](CC(C)C)NC(=O)[C@H](CC(C)C)NC(=O)OCc2ccccc2)c1 | Proteasome component C5/PSMB5 chymotrypsin-like site | enzyme activity in cells, inhibitor | – | – | 0.0221 µM |
| O=C1NC(=S)NC(=O)C1=Cc1cn(Cc2cccc3ccccc23)c2ccc(Cl)cc12 | DNA polymerase eta (POLH, Homo sapiens, UniProt Q9Y253) | enzyme activity, inhibitor, fluorescence | – | – | 11 µM |
| COP(=O)(OC)SCn1nnc2ccccc2c1=O | rat liver carboxylesterase | enzyme activity, inhibitor | rat, postnatal day 12, liver homogenate | added: p-nitrophenyl valerate | 0.19 µM |
| CC1=NN(c2ccccc2)C(=S)/C1=C/Nc1c(Br)cc(Br)cc1Br | srtA (Staphylococcus aureus, UniProt Q2FV99) | enzyme activity, inhibitor | – | – | < 5 µM |
| COc1cc(O)c2c(c1)oc(=O)c1c3cc(O)c(O)cc3oc21 | Genome polyprotein, NS5B polymerase (Hepatitis C virus genotype 1b, UniProt P26663) | RNA polymerase activity, inhibitor | – | NS5B-RNA preincubated before inhibitor | 80 µM |
| NCCCOc1ccc(Cl)cc1C(=O)Nc1ccc([N+](=O)[O-])cc1Cl | Genome polyprotein, NS2B-NS3 interaction (dengue virus type 2, UniProt P29990) | NS2B-NS3 interaction, inhibitor, split luciferase complementation | dengue virus 2 | – | 4.9 µM |
| O=C([O-])c1ccccc1-c1c2cc(Br)c(=O)cc-2oc2[c]([Hg+])c([O-])c(Br)cc12.[Na+].[Na+].[OH-] | Dual specificity protein phosphatase 5 (Homo sapiens, UniProt Q16690) | phosphatase activity | – | 0 min, 1 mM DTT, initial velocity, added: pNPP | 30.9 ± 0.9 µM |
| NCc1ccc(-c2ncc(OCC3CCCCC3)nc2-c2ccc(-c3ccoc3)cc2)cc1 | Genome polyprotein NS2B-NS3 protease | inhibitor | Zika virus | – | 3.2 µM |
| Cc1oncc1C(=O)Nc1ccc(C(F)(F)F)cc1 | Solute carrier organic anion transporter family member 1B3 (SLCO1B3, Homo sapiens, UniProt Q9NPD5) | transport, inhibitor | – | 10 (unit not given), pre-incubation, added: cholecystokinin | 21.2 ± 2 µM |
| Oc1cc(Cl)c(-c2cc(Cl)ccc2Cl)cc1Cl | Sulfotransferase 1E1 (SULT1E1, Homo sapiens, UniProt P49888) | enzyme activity, inhibitor, radiometric | – | pH 7.4 | 0.019 µM |
| Cc1cc(O)cc(C)c1-c1ccc(-c2c(C)cc(O)cc2C)[se]1 | Estrogen receptor beta (ESR2, Homo sapiens, UniProt Q92731) | antagonist | HEK293T | added: estradiol 10 nM | 5.39 µM |

Repeated from above:
| Compound | target | test | system | conditions | IC50 |
| --- | --- | --- | --- | --- | --- |
| O=C1c2ccccc2SC(c2ccc(F)cc2)N1CCCN1CCCCC1 (stereo not drawn) | Acetylcholinesterase (Ache, Rattus norvegicus, UniProt P37136) | inhibitor, Ellman method | rat cerebral cortex homogenate | added: acetylthiocholine | > 250 µM |
| CC(C)C[C@H](NC(=O)[C@H](Cc1ccccc1)NC(=O)[C@H](CC1CCCCC1)NC(=O)OCc1ccccc1)C(=O)C(=O)Nc1ccccc1 | Proteasome component C5/PSMB5 chymotrypsin-like site | enzyme activity in cells, inhibitor | – | – | 0.603 µM |
| NCc1ccc(-c2ncc(OCC3CCNCC3)nc2-c2ccc3nc[nH]c3c2)cc1 | Genome polyprotein NS2B-NS3 protease | inhibitor | Zika virus | – | 2.22 µM |
| CC1=NN(c2ccccc2)C(=S)/C1=C/Nc1c(Br)cc(Br)cc1Br | srtA (Staphylococcus aureus, UniProt Q2FV99) | enzyme activity, inhibitor | – | – | < 5 µM |
